Experimental data gathered from unrelated publications.
Numbered parts are unrelated; each lists some results of a single study.

Study 1 — technique: aptamer microarray, sandwich; molecule type: DNA with 2'F-ANA; sample: in vitro; concentration: 200 nM; together with: Cy3 exosite-II aptamer, 400 nM; direction: higher = stronger binding; sequence: GGTTGGTGTGGTTGG
Target: Prothrombin, mature alpha-thrombin (F2, Homo sapiens, UniProt P00734)
Notes: whole 15-mer aptamer, many near background
Modification	mean fluorescence intensity [a.u.]
2'F-ANA at 1 2 4 6 8 12 14 15	60.1
2'F-ANA at 2 5 13 15	53
2'F-ANA at 1 2 4 6 7 10 11 14 15	48.7
2'F-ANA at 1 2 8 10 11 13 14	48.5
2'F-ANA at 1 5 7 8 10 11 12 13 15	50.3
2'F-ANA at 1 3 6 7 9 10	102
2'F-ANA at 1 2 5 6 7 8 13 15	57.8
2'F-ANA at 1 2 4 5 6 7 8 9 10 14	51.8
2'F-ANA at 1 2 4 6 7 10 12 15	59.6
2'F-ANA at 3 6 7 9 12 13 15	953
2'F-ANA at 3 4 6 12 13 14 15	253
2'F-ANA at 2 5 8 9 15	78.5
2'F-ANA at 4 7 8 9 10 11 13 15	73.1
2'F-ANA at 1 4 8 9 10 11 13	45.2
2'F-ANA at 1 3 5 7 10 11 12 14	44.8
2'F-ANA at 4 5 7 8 9 10 12 13	78.5

Study 2 — technique: protein-binding microarray; molecule type: double-stranded DNA, one strand shown; sample: in vitro; concentration: 0.8 µM; notes: whole 60-bp probe, no competitor; direction: higher = stronger binding; all sequences stand within: … GTCTTGATTCGCTTGACGCTGCTG
Target: Centromere-binding protein 1, full length, N-terminal tag (CBF1, Saccharomyces cerevisiae, UniProt P17106, residues 1-351)
UniProt P17106, sequence (whole entry, looked up): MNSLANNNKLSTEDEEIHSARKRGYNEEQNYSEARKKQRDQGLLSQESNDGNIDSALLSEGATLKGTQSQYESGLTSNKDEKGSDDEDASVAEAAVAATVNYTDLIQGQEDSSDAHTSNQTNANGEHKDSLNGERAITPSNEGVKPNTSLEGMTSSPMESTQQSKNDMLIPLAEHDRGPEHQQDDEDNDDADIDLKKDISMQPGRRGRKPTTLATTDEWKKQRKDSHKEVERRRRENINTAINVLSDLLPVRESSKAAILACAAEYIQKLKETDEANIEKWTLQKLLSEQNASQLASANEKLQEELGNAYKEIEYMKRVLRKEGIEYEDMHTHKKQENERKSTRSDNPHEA
Sequence	fluorescence intensity [a.u.]
CTAGAAGATTACATAGTGATGATGATCGTGACATTC	640
CTATTCTTTACTGAGACCGTGATCAGGAGAACGTTC	1210
GAATGCTGCCACCCTCACCTCACTAACGCTGCGTAG	484
CCTAACTACTATATCGGTCAGGTATAGCTTCGTACA	523
CTATTAGGAAACAATCACGAGACGATAACGACGTTC	1670
CTATGCTTGTGAGTGCACGTGTATACGCTATGCTTC	5470
CTAGTCAACAAGACCCACGTTGGTCAATTGAAATTC	494
GAAAAGAATCTTAATCACGAATTAGGCGTATTGTAG	604
CTATACATGACGTGAAATGTGCACGGGGAAATGTTC	826
CTACTTTTTCAACGTCAGGCTGAAATTGACAACTTC	572
CTATTCAGCTGTCACCACCAGTTTTAGGCCCTATTC	507
CTAGTTCATAAAACACACATGAAACAACCTTATTTC	516
GAACTTTATTTTTTTGGCGTGACCAGCGGGTACTAG	1110
GAATCTTTCACTTATCTGATGTTCCTGATTGCCTAG	545
CTACATCACTATGCACTGATGACGTCACTGTCATTC	529
CTATTTGTTTTCCTTCACATGATGAAGAAGGTTTTC	1020
GAATGGGTTTTCAGGCACGTAATTTTCAAAAGATAG	631
CTAACAGTATTTCATCACGACAAGCATATCCAATTC	604
CTAAAGGACTTGTCACATGAAATTTAGGTCGAGTTC	897
CTAGGCGCACACAATCACGTTACTTGAATCTCATTC	2230
CTAATGTTCTGCAACAGCGTGCCTGTCACTTGGTTC	546
GAATTTTTAATTATCCACGAGATATTCGAACCTTAG	608
CCTAACTACTATATTATCATGACATAGCTTCGTACA	578

Study 3 — technique: universal PBM; molecule type: double-stranded DNA, one strand shown; sample: in vitro; concentration: not given; direction: higher = stronger binding
Target: Sal-like protein 4, full length isoform B (SALL4, Homo sapiens, UniProt Q9UJQ4-2, residues 1-616)
Notes: 8-mer, flanks averaged, mean of replicates
Sequence	E-score
CCGTCGCC	-0.277
CTCTGAAC	-0.0934
GAGCCCCA	-0.27
CCTTACGA	-0.0531
GAGATATC	0.108
ACTGGTGA	-0.0158
AATCACTA	0.13
CGAGAAGC	-0.0984
TGAACACA	0.15
CCATGTGA	-0.101
GCAGCAGC	-0.204
GTTACAAC	0.0793
CTGATATC	0.0437
ACAACTAC	0.102
CAACACAC	0.0507
CCGGAGTC	-0.3
CTGGTTCC	-0.221
ACGTGTGC	-0.0526

Study 4 — technique: EMSA with sequencing; molecule type: double-stranded DNA, one strand shown; sample: in vitro; concentration: 10 and 20 nM; relative to: negative control set to 0; direction: higher = stronger binding
Target: Hepatocyte nuclear factor 3-alpha (Foxa1, Mus musculus, UniProt P35582, residues 1-468, full length assumed)
UniProt P35582, sequence (whole entry, looked up): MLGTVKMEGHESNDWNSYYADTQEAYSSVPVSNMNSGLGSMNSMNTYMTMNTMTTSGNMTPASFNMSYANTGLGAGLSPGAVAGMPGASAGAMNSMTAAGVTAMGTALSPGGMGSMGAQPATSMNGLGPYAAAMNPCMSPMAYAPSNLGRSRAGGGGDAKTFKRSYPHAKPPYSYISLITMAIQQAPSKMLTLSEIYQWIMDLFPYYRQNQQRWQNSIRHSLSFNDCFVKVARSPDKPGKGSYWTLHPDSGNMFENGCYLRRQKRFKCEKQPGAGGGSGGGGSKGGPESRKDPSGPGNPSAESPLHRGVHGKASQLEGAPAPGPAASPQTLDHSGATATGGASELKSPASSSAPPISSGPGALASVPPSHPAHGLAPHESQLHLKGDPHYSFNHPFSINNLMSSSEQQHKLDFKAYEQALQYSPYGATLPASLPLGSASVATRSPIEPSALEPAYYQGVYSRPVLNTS
Notes: whole designed probe, mean of two concentrations, ends assumed
All sequences stand within: GTGAGCGGTGCCCATTGATGGGGAAC … TTTCACTGGGATCGTGGGGAC
Sequence	normalised bound fraction [ratio]
GGTGACAAACCCAAGGCTTGTGGGCTCTGCACACCCTCCACAGTCTTTTGTGTGGCCTGTTGGCAGTTTGATTTTTACGTTTTTGGGGGATGTAGATTGCTTTGTCTTTAAGTTTAGATGTCCGGGTTTTGTTGAGGAAAAAGAAACCCACACCAGATTTACAGTCCCCTAGATCCCCCATCTCATTCTGTGC	-0.0858
TCTACACCAATGTCACACTGCCAAATCTCAAAGAAGATTTGGTTGTCACCACTTAAATCCCCTCATGAATGTTCTGGAAAAACTCCCTGCCCTTGTTGACATAGCCTCTCTGCATAAAACTCCTATCATATTCCCACTCCTAAATGTCTCCAAAGCCAACTTTGTCACTTACTGATTAATACCTACCATCTCC	0.27
CAGGAGAAAAGTTTTCCATTGAGAGGCTGGAGTGGAGCTCTAGGGATTGGTGGGGTTGTCACCAGCCATACCAGTGCATTCTAAGGCACAAGTTGTTTGCTTTGGCCCAGAAACAGCTGGCAGTTGGCCAGTGCCCAGCCACCTTGTCCTTTGCCCATGAAGGCTCTAGTAATTAGCAATATTCACCGAATGA	0.29
TTGAAATACTATAATATAAATTCTAATGAAATTTGAAATCATGTGGGCAAGTTAATTAAAAACAAAAGAATAAATGCTTGTCCATATTGCTTTATGTTTACATAGTTCATCTGGTAGAATAAATATTATTTTGAAAAAAGAAGGGCTCTTAGTGGGAAATACAATACCAAAGTTTAAAACATACTAGTTAAAA	0.496
TCTTTATTGCGTCCTCTATATGAGCCTGATGCTAACTCACGCTACCTCACCCCCTATGCCTCAGGATCACTTACCTGACCCACTAACGCCGGTGTTTACATTGGTTCCTGCCCCGTTTTAGGTGGAGGGGCCCTTCGGAGAACAATGGTGCATTCACCAAGTCTAGATTCCTCTGTAGAAGAGTTATATGCGA	0.303
ATCTTCCCCCTCTTCCTTGCCCCACCAGCTCACCTTCCCGGGTTATTTGCAGATAGGAAAATAAATAAAGCCGGCATTCGTTAACCCTCTTCTGGCGCAAACTGCCAAAGTAAACAGATCTAACATGGTCCTTTGGCGACGCCAGGCTCCGGGAGAGCAAAGCACCGTGTCAGGGCCATGATCCGGGGTGGCC	0.489
ATCTTCCCCCTCTTCCTTGCCCCACCAGCTCACCTTCCCGGGTTATTTGCAGATAGGAAAATAAATAAAGCCGGCATTCGTTAACCCTCTTCACGCGCATACTGCCAGAGCAAACAGATGAATCATGGTCCTTTGGCGACGCCAGGCTCCGGGAGAGCAAAGCACCGTGTCAGGGCCATGATCCGGGGTGGCC	0.393
AGGTGAAGTCGGCACCCTTGTCTTTGAGCTCACACAGGTGGCTGAGCTAAATAAGTGCTGAAAGGAGCTGGGTGCACTCTCCTGAGTGTCCTTTGTTGACTCTGGAAGCACTGTAAACTTGGCATCAGAAGGAGATTATAAAGTGCTTTTGTTCCTAAGCTTTATAAAGTGTGTGTGTATGCATGTGGGTTTC	0.19

A few entries again (study 3):
Sequence	E-score
CCGGAGTC	-0.3
CAACACAC	0.0507
CGAGAAGC	-0.0984
GAGATATC	0.108
GCAGCAGC	-0.204
